Measurements pooled from the literature.
Parts stem from different laboratories: compare values within a part only. Changes are numbered by the printed parent chain.

Block 1
Target: Ras GTPase-activating protein-binding protein 1, full length (G3BP1, Homo sapiens, UniProt Q13283)
Sequence of UniProt Q13283 (whole entry, looked up): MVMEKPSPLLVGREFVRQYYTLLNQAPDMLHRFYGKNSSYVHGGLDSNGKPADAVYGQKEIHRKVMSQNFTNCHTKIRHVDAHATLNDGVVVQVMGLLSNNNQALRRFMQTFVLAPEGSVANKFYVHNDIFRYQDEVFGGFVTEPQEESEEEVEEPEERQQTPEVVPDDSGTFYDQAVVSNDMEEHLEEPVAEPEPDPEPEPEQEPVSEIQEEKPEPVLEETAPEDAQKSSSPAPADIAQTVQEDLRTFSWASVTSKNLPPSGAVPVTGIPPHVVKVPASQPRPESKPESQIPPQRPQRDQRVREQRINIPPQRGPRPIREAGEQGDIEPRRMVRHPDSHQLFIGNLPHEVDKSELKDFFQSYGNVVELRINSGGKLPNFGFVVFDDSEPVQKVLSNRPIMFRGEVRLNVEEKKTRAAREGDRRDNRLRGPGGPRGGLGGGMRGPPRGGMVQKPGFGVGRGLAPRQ
Technique: RNA Bind-n-Seq
Form: RNA
Sample: in vitro
Tested at: 200 nM
Notes: whole 134-nt RNA, ends assumed
Together with: 150 mM LiCl
Relative to: input library
Direction: higher = stronger binding
Endpoint: log2 enrichment
All molecules: 7-deaza-guanosine replaces G
All sequences stand within: GGGAGUUCUACAGUCCGACGAUC … UGGAAUUCUCGGGUGUCAAGG
ACCAUGCAGGUGGGCAUCUUUGGGAAGUGGGGCAAGGGGGGGAUAGCGAGGGGGGUAACACUUUGGGAACAGGUGGUCCCAGGUCGUUUC: 0.235
AAGUCCUGUGCUACACAUCGUAUGUACCGAAUCGGGAAAGGGGAAAGGGGAAAGGGAAAGUAUUAUGUUACGCCGUUCGGAUCUGCACUU: 0.349
UGGGAGGUGGAUUUUGUUUAUUUUUUUAGCUCAUUUCCAGGGGUGGGAAUUUUUUUUUAAUAUGUGUCAUGAAAAAAGUUGUUUUUGAAA: -0.306
UGGCCCUGGUGGCAUGCGGGGAGGAAGAGGUGGCCUCAUGGAUCGUGGUGGUCCCGGUGGAAUGUUCAGAGCUGGCCGUGGUGGAGACAG: -0.206
GUCCUGUGCUACACAUCGUAUGUACCGAAUCGGGUUUUUGGGUUUUUGGGUUUUUGGGAAAGUAUUAUGUUACGCCGUUCGGAUCUGCAC: -0.226
UAACUUUAGAGGAGGAUCUGAUGGAUAUGGCAGUGGACGUGGAAUUGGGGAUGGCUAUAAUGGGUAUGGAGGAGGACCUGGAGGUGGCAA: -0.51
UGGGAGGUGGAUUUUGUUUUUUUUUUUAGCUCAUUUCCAGGGGUGGGAAUUUUUUUUUAAUAUGUGUCAUGAAUAAAGUUGUUUUUGAAA: -0.177
UUUUAAAGUGUUCUCCACCACACUUGGGCAUUUAUCUGUUUCUUUAAAUGGCCUUCUCUGUUUCUUGUUUGCAGGCAGCUAUCAAUGGUG: 0.771
CUGUGCUACACAUCGUAUGUACCGAAUCGGGGAAAAAAAGGGAAAAAAAGGAAAAAAAGGGAAAGUAUUAUGUUACGCCGUUCGGAUCUG: 0.111

Block 2
Target: Sal-like protein 4, full length isoform A (SALL4, Homo sapiens, UniProt Q9UJQ4, residues 1-1053)
Sequence of UniProt Q9UJQ4 (whole entry, looked up): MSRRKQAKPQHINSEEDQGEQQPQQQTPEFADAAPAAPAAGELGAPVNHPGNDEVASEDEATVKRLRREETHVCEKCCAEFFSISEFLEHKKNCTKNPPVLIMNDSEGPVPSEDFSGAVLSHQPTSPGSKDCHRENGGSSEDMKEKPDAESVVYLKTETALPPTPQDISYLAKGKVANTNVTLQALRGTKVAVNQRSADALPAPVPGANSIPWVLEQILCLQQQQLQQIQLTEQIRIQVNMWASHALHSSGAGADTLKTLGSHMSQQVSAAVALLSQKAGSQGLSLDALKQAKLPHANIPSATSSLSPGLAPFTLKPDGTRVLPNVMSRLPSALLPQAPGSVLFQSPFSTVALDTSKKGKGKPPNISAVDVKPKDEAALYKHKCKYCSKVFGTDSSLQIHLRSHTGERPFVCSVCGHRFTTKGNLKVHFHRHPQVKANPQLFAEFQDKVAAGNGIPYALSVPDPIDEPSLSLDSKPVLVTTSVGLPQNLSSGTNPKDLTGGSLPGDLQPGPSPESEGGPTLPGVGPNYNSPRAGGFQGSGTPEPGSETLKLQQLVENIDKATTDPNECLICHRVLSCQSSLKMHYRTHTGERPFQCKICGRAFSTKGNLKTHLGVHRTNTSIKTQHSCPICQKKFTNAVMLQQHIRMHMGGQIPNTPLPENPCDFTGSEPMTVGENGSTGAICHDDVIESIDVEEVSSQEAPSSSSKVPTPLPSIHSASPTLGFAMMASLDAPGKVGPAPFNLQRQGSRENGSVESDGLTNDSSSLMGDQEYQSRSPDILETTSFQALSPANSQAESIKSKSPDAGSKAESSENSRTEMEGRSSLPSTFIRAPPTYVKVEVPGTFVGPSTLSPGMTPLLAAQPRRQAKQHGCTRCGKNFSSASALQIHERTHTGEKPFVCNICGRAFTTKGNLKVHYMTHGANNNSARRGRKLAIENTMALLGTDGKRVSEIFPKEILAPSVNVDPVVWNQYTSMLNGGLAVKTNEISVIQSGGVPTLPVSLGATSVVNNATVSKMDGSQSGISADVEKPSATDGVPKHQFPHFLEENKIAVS
Technique: universal PBM
Form: double-stranded DNA, one strand shown
Sample: in vitro
Tested at: 600 nM
Notes: 8-mer, flanks averaged, mean of replicates
Direction: higher = stronger binding
Endpoint: E-score
ACAGAAAT: 0.284
AGGTTACC: -0.0388
TACGACCA: -0.0277
CCGGAACC: -0.403
AACCAGCT: 0.00468
GCGCACGA: -0.233
CTGATACC: 0.081
GCAGATTA: 0.127
AGGATACG: -0.0877
AACCACCT: -0.0165
TAACATGA: 0.233
CACATTAC: 0.181
ATTACTGG: 0.144
CATCGCCA: -0.0209
GGACTACA: 0.0813
ACAGGAAG: -0.0463

Block 3
Target: Phosphate system positive regulatory protein PHO4, full length, GST-tagged (PHO4, Saccharomyces cerevisiae, UniProt P07270, residues 1-312)
Technique: competition protein-binding microarray
Form: double-stranded DNA, one strand shown
Sample: in vitro
Tested at: 2 µM
Notes: whole 60-bp probe, lowest competitor level
Together with: Cbf1 competitor, 0.05 µM
Direction: higher = stronger binding
Endpoint: fluorescence intensity
All sequences stand within: … GTCTTGATTCGCTTGACGCTGCTG
Target sequence (chain): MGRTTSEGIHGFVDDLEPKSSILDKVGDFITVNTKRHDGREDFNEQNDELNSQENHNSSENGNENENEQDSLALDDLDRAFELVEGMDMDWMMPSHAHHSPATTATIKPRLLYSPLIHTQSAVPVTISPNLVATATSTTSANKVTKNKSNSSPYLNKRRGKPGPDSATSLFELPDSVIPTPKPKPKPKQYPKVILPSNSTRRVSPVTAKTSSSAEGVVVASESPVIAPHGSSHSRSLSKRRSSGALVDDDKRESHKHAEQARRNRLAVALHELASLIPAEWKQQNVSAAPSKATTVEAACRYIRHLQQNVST
GCGACTATGGTATTTCTCGTGATGGGCCTGAAGGTT: 4240 a.u.
AAATTACTAAGTTGGCTCGTGGGTGACGCCGTATGA: 10600 a.u.
TTAAGTCTATGCCAGCACATGTGGTGCTCAGTGCTG: 11300 a.u.
CAAGGCTCTTCAAACCATGTGACAGTAAACTTCGCA: 7560 a.u.
ATCTGGCATCTTCACCACGTTATTTCTGCTGGTGAA: 9850 a.u.
TAACGACTGGCACCACCCGTGATGGAGAAGAACACA: 6500 a.u.
AAGCGCCAAGTACAGAACGTGACGGTAAGAAAGAAT: 12700 a.u.
GGCTTTCTAAGTGAGCTCGTGCCAGCACAATTAATA: 12700 a.u.
CAAAAGGCATGGCCTGGCGTGCAAAATCCGTTGTTT: 5790 a.u.
AAATTACTAAGTTGTTTAGTGGGTGACGCCGTATGA: 3330 a.u.
CAATCTTTGTCTAGCTTCGTGCTTTTTGGCAAAAGC: 5750 a.u.
ATGGACACTTTAAAGCACGTTTTGCTTGAAGAGACA: 14600 a.u.
AGAGGGCAGAATTTGTCCGTGCGGACATTTGCCTGT: 4810 a.u.
TACTGCGCCGGGTGATGCGTGACGGGTTTTTGGAAA: 7340 a.u.
CATACCCAACCTTTTCACGTGCTATAAGATATTTGT: 17600 a.u.
CTACAATTTCCACTCCACGTGAATTTTTTCTCGGAA: 14200 a.u.
TGGGCGGAAATCGCGCAGATGTGGTGTTTGAGTGTT: 4810 a.u.
GGTCCATTCGGCTTGCTGGTGGTACTGAGACAGATA: 3830 a.u.
CGACGGAACCCAGGACACGTAATGAGGAAGTTTCAT: 4370 a.u.

Block 4
Target: CCND2, cyclin fold, Cln2 fusion (human)
Technique: yeast growth competition, sequencing
Sample: yeast
Notes: weak parent motif
Relative to: not given
Direction: higher = stronger binding
Endpoint: normalised enrichment score
Starting sequence: ORC1 docking peptide (human); PRARKRLELGNLG; partner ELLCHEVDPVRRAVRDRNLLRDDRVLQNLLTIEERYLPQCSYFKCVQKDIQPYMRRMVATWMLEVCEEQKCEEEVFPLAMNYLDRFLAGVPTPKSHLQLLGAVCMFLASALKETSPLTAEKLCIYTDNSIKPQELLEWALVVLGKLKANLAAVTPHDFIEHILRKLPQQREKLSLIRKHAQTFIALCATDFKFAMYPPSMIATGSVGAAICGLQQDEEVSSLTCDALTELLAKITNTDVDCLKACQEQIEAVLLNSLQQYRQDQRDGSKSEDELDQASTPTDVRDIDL
L7S: 0.173
A3V: 0.0586
L12M: 0.534
P1W: 0.0292
G13T: -0.118
L7Y: 0.15
A3M: 0.763
E8D: 0.438
R6A: -0.13
K5M: -0.0384
L12H: 0.319
P1T: 0.0665
G10R: 0.129
R6K: 0.0896
E8P: -0.189
L9E: 0.116
A3T: 0.39
E8I: 0.107
L7Q: 0.0189

Block 5
Target: Histone acetyltransferase KAT6A, winged helix 1, GST fusion (KAT6A, Homo sapiens, UniProt Q92794, residues 1-85)
Technique: protein binding microarray
Form: double-stranded DNA, one strand shown
Sample: in vitro
Tested at: not given
Notes: 8-mer, flanks averaged, mean of 2 arrays, mostly near background
Relative to: not given
Direction: higher = stronger binding
Endpoint: E-score
Target sequence (chain): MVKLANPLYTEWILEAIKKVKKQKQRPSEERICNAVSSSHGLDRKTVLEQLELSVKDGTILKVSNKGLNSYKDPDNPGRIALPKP
AGTCCACC: -0.215
CCAGTCGG: 0.0227
ACCCGCAC: 0.218
CATATCCG: 0.115
GAACGTAA: -0.0568
CAGACTAC: -0.0754
ATTCTCCG: 0.141
ACGAGCCG: 0.161
GCGGCTAC: 0.396
TATGTGAA: -0.0526
ATAATGCC: 0.0195
AGGCTGCG: 0.0658
CAAACCAC: -0.0153
CCCCCCCC: -0.0168
CTAACCTA: -0.146
ATCTAGTG: -0.126
AATCCGAA: -0.0035

Block 6
Target: RING finger protein unkempt homolog, zinc fingers 1-6, GST-SBP tag (UNK, Homo sapiens, UniProt Q9C0B0, residues 30-357)
Technique: RNA Bind-n-Seq
Form: RNA
Sample: in vitro
Tested at: not given
Notes: RNA with constant flanks, human-mouse chimeric sites, ends assumed
Relative to: input RNA pool
Direction: higher = stronger binding
Endpoint: bound/input enrichment
All sequences stand within: GGGAGUUCUACAGUCCGACGAUC … CAACAGAGGAUUGAGCAUCA
Target sequence (chain): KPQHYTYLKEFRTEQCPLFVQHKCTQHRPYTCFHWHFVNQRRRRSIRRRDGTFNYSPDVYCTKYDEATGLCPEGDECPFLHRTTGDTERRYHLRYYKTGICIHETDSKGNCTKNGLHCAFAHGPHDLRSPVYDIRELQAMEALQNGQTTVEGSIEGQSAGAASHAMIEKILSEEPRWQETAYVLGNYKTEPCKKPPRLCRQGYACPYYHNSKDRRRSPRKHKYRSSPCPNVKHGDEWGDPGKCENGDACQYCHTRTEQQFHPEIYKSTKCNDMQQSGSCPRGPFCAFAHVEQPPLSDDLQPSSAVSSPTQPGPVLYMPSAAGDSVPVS
CAGCUGCAGACAGAAAAGGAUGAGAAGGAGCUGUAUAAGGUACAUUUGAAGAAUACAGAAAUAGAAAAUACGAAGCUUGUGUCAGAGGUCCAGACUUUAAAAAAUUUAGAUGGAAACAAA: 4.9 ratio
CUUCGGAAAAAAAAAUUACCUUUUCUGACAGUGCUUUAUGGAGUAAAGAUCCACGUUCAAGCUCAAAGAGCAAAGGCUUUGCACGGAGCUCAAACAUCUGAUGAAGAAAGAUUUCUGAGA: 0.0884 ratio
UCAGGAACCCAGACAAACAUGAAUGUAAAUGAAGUCAUUAGCAACAGAGCAAUUGAAAUGUUAGGAGGUGAACUUGGCAGCAAGAAGCCUGUGCAUCCCAACGAUCAUGUUAACAAAAGC: 0.243 ratio
UUUGUAUUUAUGCUAAGCACACGUGCUGGUGGUCUUGGCAUCAAUCUUGCGACUGCUGAUGUAGUCAUUUUAUAUGACUCAGAUUGGAAUCCGCAAGUUGAUCUUCAGGCUAUGGACCGU: 0.146 ratio
UAUUUUUGACAGCCACACAAUCUUGGCAUGUAUUAAGAAAAAAAAAAAUCCCUGUUGAAGUAGUUUUUCCACCUAUCAGCACUGAGUAAAUGCCAUAACUCCGCGGAAAUGGUCUAAAUA: 0.204 ratio
AGAUUCCCCCUCCUGAGGCCUUCUCCAAAGUUGGAGUCUCUUACAGAUGCCUCAUCCCCUGUUAGCGUUUUAGUUUGGACCACCCAGCCUUGGACAAUUCCCGCCAAUGAAGCUGUUUGC: 2.55 ratio

Block 7
Target: RNA binding protein fox-1 homolog 2, RRM domain, GST-SBP tag (RBFOX2, Homo sapiens, UniProt O43251-10, residues 100-194)
Technique: RNA Bind-n-Seq
Form: RNA
Sample: in vitro
Tested at: 365 nM
Notes: natural RNA segment, single round, ends assumed
Relative to: no-protein control
Direction: higher = stronger binding
Endpoint: RBNS enrichment (R)
All sequences stand within: GGGAGUUCUACAGUCCGACGAUC … UGGAAUUCUCGGGUGCCAA
Construct (chain): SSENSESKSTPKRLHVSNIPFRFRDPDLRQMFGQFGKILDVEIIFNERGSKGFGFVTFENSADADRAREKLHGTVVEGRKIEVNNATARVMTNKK
AAGAGGUAUUAGAAUCUUGCUGUACCCAAGCAAGACGUUAAUUUUUCUUUUAACUGUUUUGGGGAGGGAGGGAGUGAUAGCUUAACUGCUGAAGCCAGGCGGGGGUCUGC: 0.458
AGAAAAGCCUGAACUAUUUAUUCAAAACAUGACCACUCUGGGCUAUAGAAGAUGCUGAGUGUGUUUGAGAGACUGACAUACAUAAUAGAUGACUUCCUAGGGUUCUGAAA: 0.722
GCCUCCCCUCCUUUUGAUGCUCAGCCCACUGUGAAGAGUGAGCUUGUUUUGUAAGCCACAUUGGUUCCUGUGAGCAUCUGACCGUCCCCCAUCGAGUAUUUCCCCCGGAA: 0.978
UAUAAAGAUGAAAUAUGAACUAUCUCAUUAGAAGUCAUAGUUGACCACAGACAUGUUAUUCUUCUGAAAGAGCCACAUUUUGGUUUUAUUUCUUGUCACAUGAUUUCUUU: 0.393
UCCACAGAAGCUGGGGGAGAGUCUGCAGCAGGCCUGAGCCUGCUGAUGUCAGUGCUGACUGAGUCCAUGCUAACUGAGAUCUGUAGGCAGAGCUCUGCCCUGUAGCUCCC: 0.772
UUUCUAGAAUGUCAUAUAAAUGGAGUCACACUGAUGUCGCCUUUUGAGUCUGGCAUCUUUCCCUCAGCUUAAUGCUUUUGAGUCAUUCAUGAUGUGUGCGUGUGGUUUGU: 0.423
GAGCCUCAUGCUCAUGAAAUCAUGGUCCCAGGCGGCUCCACCUCAAAGAGAAAGCCUGGAAGGAAAUGUUCCAACUCCUUAGAAGGGUCGUGCAAGCUGCUGUGGGAGGG: 0.324
